Measurements pooled from the literature.
Compare with care: the assays were run in different laboratories. ± marks the error that the study gave.

`O=C1NC2(CC2)COc2ncc(F)cc2[C@H]2COCCN2c2ccn3ncc1c3n2` — result for “serum total protein”: 59.5 ± 3.4 g/L (Sprague-Dawley rat, female, serum; oral, 10 mg/kg/day, end of treatment, 4-week subacute toxicity).
`CCCCCCCC(=O)NCCCC[C@H](NC(=O)CCCCCCC)C(=O)N[C@@H](CCCCNC(=O)CCCCCCC)C(=O)NCC(=O)NCC(=O)NCC(=O)N[C@@H](CS)C(=O)N[C@@H](CCCNC(=N)N)C(=O)N[C@@H](CCCCN)C(=O)N1CCC[C@H]1C(N)=O` has an IC50 of 290 µM (HCE-T; cytotoxicity, MTT; 24 h).
`CC(=O)N[C@H](C(=O)N[C@@H](CCCNC(=N)N)C(=O)N[C@@H](CCCCN)C(=O)N[C@@H](CCCNC(=N)N)C(=O)N[C@H](C(=O)N[C@@]1(C)CCCC=CCCC[C@@](C)(C(=O)N[C@@H](CCC(N)=O)C(=O)N[C@@H](CCC(=O)O)C(=O)N[C@@H](CCCNC(=N)N)C(=O)N[C@@H](CCC(=O)O)C(=O)N[C@@H](CC(C)C)C(=O)N[C@H](C(=O)N[C@@H](CCC(=O)O)C(N)=O)C(C)C)NC(=O)[C@H](CC(C)C)NC(=O)[C@H](CCCNC(=N)N)NC(=O)[C@H](CCCNC(=N)N)NC1=O)[C@@H](C)O)C(C)C` gave an IC50 of > 50 µM (A-431; cell viability; 18 h, serum-free).
With `CC(C)(C)C(=O)OCOP(=O)(OCOC(=O)C(C)(C)C)C1CCCN(O)C1=O` (stereo not drawn) the log LC50 was > -4 log M (SF-268).
With `COc1ccccc1-c1n[nH]c2nc(N[C@H]3CC[C@H](NS(=O)(=O)CC(C)C)CC3)ncc12` the relative abundance was 1.07 (bead binding, competition bead pull-down, refers to: LINJ.35.1820; Leishmania donovani extract; 10 µM; reference: vehicle).
For `C[C@H]1[C@H](OC(=O)CCC(=O)OCCC2CCN(CC(=O)Nc3ccc([N+](=O)[O-])c(C(F)(F)F)c3)CC2)O[C@@H]2O[C@@]3(C)CC[C@H]4[C@H](C)CC[C@@H]1[C@@]24OO3`, the IC50 was 0.88 µM (A2780; cell growth or viability, CCK-8).
`CC[C@H](C)[C@H](NC(=O)[C@H](C)NC(=O)[C@@H](N)Cc1c[nH]cn1)C(=O)N[C@@H](Cc1ccc(O)cc1)C(=O)N1CCC[C@H]1C(=O)N[C@@H](CCCNC(=N)N)C(=O)N[C@@H](Cc1c[nH]cn1)C(=O)N[C@@H](CCCCN)C(=O)N[C@@H](CCCCN)C(=O)N[C@@H](CC(C)C)C(=O)N[C@@H](CCC(=O)O)C(=O)N[C@H](C(=O)N[C@@H](C)C(=O)N[C@H](C(=O)N[C@@H](CC(N)=O)C(=O)N[C@@H](CC(C)C)C(=O)N[C@@H](C)C(=O)N[C@@H](Cc1c[nH]c2ccccc12)C(=O)N[C@H](C(=O)N[C@@H](C)C(=O)NCC(=O)N[C@@H](CC(N)=O)C(=O)N[C@@H](CO)C(=O)N[C@@H](CC(N)=O)C(=O)O)[C@@H](C)O)C(C)C)[C@@H](C)O` has an IC50 of > 15 µM (MEC1; cell growth or viability, flow cytometry; 90 min).
The IC50 of `Cc1cc(Oc2nc(N3CC[C@@H](c4ccncc4)C3)ncc2F)[nH]n1` is reported as 20.9 µM (L-363; cell proliferation; blood cancer).
`COc1ccccc1-c1n[nH]c2nc(NC3CCN(C(=O)Cc4ccc(F)cc4F)CC3)ncc12` gave a relative abundance of 0.86 (bead binding, competition bead pull-down, refers to: LMJF.30.2550; Leishmania donovani extract; 10 µM; reference: vehicle).
For `CC(=O)N[C@H](C(=O)N[C@@H](CCCNC(=N)N)C(=O)N[C@@H](CCCCN)C(=O)N[C@@H](CCCNC(=N)N)C(=O)N[C@H](C(=O)N[C@@H](CC(C)C)C(=O)N[C@@H](CCCNC(=N)N)C(=O)N[C@@H](CCCNC(=N)N)C(=O)N[C@]1(C)CCCC=CCCC[C@@](C)(C(=O)N[C@@H](CCCNC(=N)N)C(=O)N[C@@H](CCC(=O)O)C(=O)N[C@@H](CC(C)C)C(=O)N[C@H](C(=O)N[C@@H](CCC(=O)O)C(N)=O)C(C)C)NC(=O)[C@H](CCC(N)=O)NC(=O)[C@H](CC(C)C)NC1=O)[C@@H](C)O)C(C)C`, the IC50 was > 100 µM (A-431 (wild-type EGFR); cell viability; 18 h).
For `CC(C)C12OC1C1OC13C1(C)CCC4=C(COC4=O)C1CC1OC13C2OC(=O)CCCOC1OC(CO)C(O)C(O)C1O` (stereo not drawn), the IC50 was 0.61 µM (PC-3; cell growth or viability, XTT; 47 h).
`CCC1=C(C)C2=C(c3ccc(P(=NC(=O)c4ccccn4)(c4ccccc4)c4ccccc4)cc3)c3c(C)c(CC)c(C)n3[B-](C)(C)[N+]2=C1C` has an IC50 of 123 µM (IMR-90; cell growth or viability, MTT).

Excerpt of the above:
`COc1ccccc1-c1n[nH]c2nc(NC3CCN(C(=O)Cc4ccc(F)cc4F)CC3)ncc12` gave a relative abundance of 0.86 (bead binding, competition bead pull-down, refers to: LMJF.30.2550; Leishmania donovani extract; 10 µM; reference: vehicle).
For `C[C@H]1[C@H](OC(=O)CCC(=O)OCCC2CCN(CC(=O)Nc3ccc([N+](=O)[O-])c(C(F)(F)F)c3)CC2)O[C@@H]2O[C@@]3(C)CC[C@H]4[C@H](C)CC[C@@H]1[C@@]24OO3`, the IC50 was 0.88 µM (A2780; cell growth or viability, CCK-8).
